Assay results pooled from the literature.
Lines come from different studies, so protocols differ. Values joined by “and” are separate records of one study, mostly repeats; a detail may differ. Numbers after ± are the reported error.

The critical concentration of `ACT1 fragment (Toxoplasma gondii)` is reported as 91.9 µM and 84.3 µM and 44.3 µM (itself; single-filament epifluorescence microscopy; pointed end).
The fold change of `insulin human` is reported as 1.01 (refers to: NLGN1 mRNA; EcoHIV-infected mouse, brain; i.p., dose not given; baseline: PBS).
With `gag CA CTD fragment (Rous sarcoma virus)` the Kd was 110 ± 30 µM (itself; ITC).
The Ka of `triosephosphate isomerase N11A/E65Q (Leishmania mexicana)` is reported as greater than 3e+12 M⁻¹ (itself; enzyme activity; monomer-dimer equilibrium fit).
The Kd of `gag CA CTD fragment D155Y/R185W (Rous sarcoma virus)` is reported as 990 ± 280 µM (itself; ITC).
`CapV apo, wild type (Acinetobacter baumannii)`: “subunits per oligomer” 2 (itself; SEC).
`gag CA CTD fragment F167Y (Rous sarcoma virus)` gave a Kd of greater than 1500 µM (itself; ITC).
For `cmeC (Campylobacter jejuni)`, “subunits per oligomer” read 3 (itself; semi-native SDS-PAGE).
`dye-decolorizing peroxidase (Klebsiella pneumoniae)` — result for “subunits per oligomer”: 6 (itself; cryo-EM).
`OseR (Streptococcus suis)` has a dimer-to-monomer ratio of 2.82 fold (itself; non-reducing Western blot; lysate; in vivo, not purified, together with: H2O2; baseline: untreated, higher = more dimer).
